# Measured values from different studies.
# Parts stem from different laboratories: compare values within a part only.

# Sample 1
# Target: RNA binding protein fox-1 homolog 2, RRM domain, GST-SBP tag (RBFOX2, Homo sapiens, UniProt O43251-10, residues 100-194)
# Method: RNA Bind-n-Seq
# Form: RNA
# Sample: in vitro
# Tested at: 365 nM
# Setting: natural RNA segment, single round, ends assumed
# Relative to: no-protein control
# Reading: higher = stronger binding
Strand,RBNS enrichment (R)
GGGAGUUCUACAGUCCGACGAUCUUUUGCCAUUUUUGAAAGUAUUAGUAAAAUCAUGGAAUACAUCACAGAACAGCUGUCCAUCAGUGAGCUUGUACAGUGCUGAUUUGCAGCUCCAACAUGCGGGAUGUUCAUGGAAUUCUCGGGUGCCAA,1.3
GGGAGUUCUACAGUCCGACGAUCUUGGUUGGUUUGUUUUCUAGAAGUACGUUCAGAUGCUUUGGGGAAUGCAAUGUAUGAUUUGCUAGCUCUCUCACCACUUAACUCACUGUGAGGAUAAAUAUGCAUGCUUUUGGAAUUCUCGGGUGCCAA,48.5
GGGAGUUCUACAGUCCGACGAUCCCGCAUCCUCCUUCCCAGGUGUUGGACCAAGACCCGCCCCGCUGCCUGGCACUGCUUGGAGGUGUGCAGAGCGGAAGCAAGUGGAGCAUCCGGGGCAUUCCUGUUGACCCUGGAAUUCUCGGGUGCCAA,2.38
GGGAGUUCUACAGUCCGACGAUCCUCCCCCCACUUGUCCCCCGUCCUUGCAGCUCCAGCACUGCCUUUGUGGGUGACCACUCCAGACCCUCCUGCCAAGGAGAGCAUGGGAGAGGGCAGAGUACAAUGGGGUGUGGAAUUCUCGGGUGCCAA,0.367

# Sample 2
# Target: Sal-like protein 4, full length isoform A (SALL4, Homo sapiens, UniProt Q9UJQ4, residues 1-1053)
# Sequence of UniProt Q9UJQ4 (whole entry, looked up): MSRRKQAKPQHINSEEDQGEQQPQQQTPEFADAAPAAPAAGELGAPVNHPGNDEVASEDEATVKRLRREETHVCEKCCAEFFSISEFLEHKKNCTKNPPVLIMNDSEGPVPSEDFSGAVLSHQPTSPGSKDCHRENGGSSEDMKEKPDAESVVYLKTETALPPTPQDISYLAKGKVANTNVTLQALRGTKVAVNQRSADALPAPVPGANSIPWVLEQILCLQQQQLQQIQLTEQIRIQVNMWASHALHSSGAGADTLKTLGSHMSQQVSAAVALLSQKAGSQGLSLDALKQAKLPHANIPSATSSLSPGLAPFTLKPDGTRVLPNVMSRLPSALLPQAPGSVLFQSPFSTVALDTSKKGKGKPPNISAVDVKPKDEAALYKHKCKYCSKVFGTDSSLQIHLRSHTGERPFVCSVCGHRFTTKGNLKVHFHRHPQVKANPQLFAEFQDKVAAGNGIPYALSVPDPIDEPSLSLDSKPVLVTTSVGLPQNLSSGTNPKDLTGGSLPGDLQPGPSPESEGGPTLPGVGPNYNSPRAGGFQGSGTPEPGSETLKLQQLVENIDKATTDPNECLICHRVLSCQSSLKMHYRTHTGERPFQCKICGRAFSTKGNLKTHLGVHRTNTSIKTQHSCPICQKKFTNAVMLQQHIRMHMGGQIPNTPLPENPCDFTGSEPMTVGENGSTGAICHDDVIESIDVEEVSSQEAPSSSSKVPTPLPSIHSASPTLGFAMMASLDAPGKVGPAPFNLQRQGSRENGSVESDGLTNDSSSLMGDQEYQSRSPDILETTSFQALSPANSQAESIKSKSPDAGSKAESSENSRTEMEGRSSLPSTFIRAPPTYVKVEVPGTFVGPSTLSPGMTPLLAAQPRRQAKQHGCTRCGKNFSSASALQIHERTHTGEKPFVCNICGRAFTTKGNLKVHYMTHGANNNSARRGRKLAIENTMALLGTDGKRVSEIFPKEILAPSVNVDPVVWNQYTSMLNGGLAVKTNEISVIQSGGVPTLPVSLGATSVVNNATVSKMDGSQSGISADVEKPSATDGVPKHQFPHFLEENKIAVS
# Method: universal PBM
# Form: double-stranded DNA, one strand shown
# Sample: in vitro
# Tested at: 600 nM
# Setting: 8-mer, flanks averaged, mean of replicates
# Reading: higher = stronger binding
Strand,E-score
AGCCACAC,-0.0754
CTTCCATC,-0.0926
AAATTGCT,0.172
GACCCGAA,-0.19
AGCGTCCT,-0.191

# Sample 3
# Target: Ras GTPase-activating protein-binding protein 1, full length (G3BP1, Homo sapiens, UniProt Q13283)
# Sequence of UniProt Q13283 (whole entry, looked up): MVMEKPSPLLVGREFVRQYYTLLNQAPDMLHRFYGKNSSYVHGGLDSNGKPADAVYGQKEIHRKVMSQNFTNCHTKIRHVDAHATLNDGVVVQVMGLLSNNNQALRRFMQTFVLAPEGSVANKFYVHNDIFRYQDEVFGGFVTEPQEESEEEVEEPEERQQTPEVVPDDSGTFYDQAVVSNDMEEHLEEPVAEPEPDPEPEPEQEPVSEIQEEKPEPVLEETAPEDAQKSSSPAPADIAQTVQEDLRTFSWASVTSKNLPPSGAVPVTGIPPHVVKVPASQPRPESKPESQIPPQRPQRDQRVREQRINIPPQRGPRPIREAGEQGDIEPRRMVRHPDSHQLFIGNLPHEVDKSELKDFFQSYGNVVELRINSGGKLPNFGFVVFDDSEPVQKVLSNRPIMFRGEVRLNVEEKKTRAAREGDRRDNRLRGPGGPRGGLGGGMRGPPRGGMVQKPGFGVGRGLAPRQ
# Method: RNA Bind-n-Seq
# Form: RNA
# Sample: in vitro
# Tested at: 200 nM
# Setting: whole 134-nt RNA, ends assumed
# Together with: 150 mM LiCl
# Relative to: input library
# Reading: higher = stronger binding
# Each molecule: 7-deaza-guanosine replaces G
Strand,log2 enrichment
GGGAGUUCUACAGUCCGACGAUCUAACUUUAGAGGAGGAUCUGAUGGUUAUGGCAGUGGACGUGGAUUUGGGGAUGGCUAUAAUGGGUAUGGAGGAGGACCUGGAGGUGGCAAUGGAAUUCUCGGGUGUCAAGG,-0.0958
GGGAGUUCUACAGUCCGACGAUCUAACUUUAGAGGAGGAUCUGAUGGAUAUGGCAGUGGACGUGGAUUUGGGGAUGCCUAUAAUGGGUAUGGAGGAGGACCUGGAGGUGGCAAUGGAAUUCUCGGGUGUCAAGG,-0.695
GGGAGUUCUACAGUCCGACGAUCCUCAAGUCCUGUGCUACACAUCGUAUGUACCGAAUCGGGCCGGGCCGGGCCGGGAAAGUAUUAUGUUACGCCGUUCGGAUCUGCACUUCCUGGAAUUCUCGGGUGUCAAGG,0.677

# Further values, each from its own experiment
Molecule,target,test,system,setting,scale,measurement,result
"PhoQ, residues 284 288 289 292 302 303 QWGLFV","PhoP, residues 12 14 15 18 19 SPWRL (Escherichia coli, UniProt P23836)","Sort-seq, refers to: YFP reporter",E. coli,"PhoQ-PhoP variant library, together with: 10 µM Mg2+","relative to: high Mg2+ state, higher = stronger signaling",fold induction,0.737

# Excerpt of the above (sample 1):
Strand,RBNS enrichment (R)
GGGAGUUCUACAGUCCGACGAUCCUCCCCCCACUUGUCCCCCGUCCUUGCAGCUCCAGCACUGCCUUUGUGGGUGACCACUCCAGACCCUCCUGCCAAGGAGAGCAUGGGAGAGGGCAGAGUACAAUGGGGUGUGGAAUUCUCGGGUGCCAA,0.367
